Measurements gathered from unrelated publications.
Every numbered part comes from another study and shows a few of its results, in no order.

Sample 1 — method: protein binding microarray; form: double-stranded DNA, one strand shown; sample: in vitro; tested at: not given; relative to: not given; direction: higher = stronger binding; endpoint: E-score
Target: Histone acetyltransferase KAT6A, both winged helices, GST fusion (KAT6A, Homo sapiens, UniProt Q92794, residues 1-181)
Setting: 8-mer, flanks averaged, mean of 2 arrays, mostly near background
Construct (chain): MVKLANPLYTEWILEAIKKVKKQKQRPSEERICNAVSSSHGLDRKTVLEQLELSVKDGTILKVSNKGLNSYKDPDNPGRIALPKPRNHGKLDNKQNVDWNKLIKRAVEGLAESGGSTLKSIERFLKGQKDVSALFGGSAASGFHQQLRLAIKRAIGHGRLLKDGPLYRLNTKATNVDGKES
TAAAACGA: -0.178
CCTTAAGA: -0.128
CATTCTAC: -0.163
GATGTAAA: 0.0174
GATATCTA: -0.0644

Sample 2 — method: protein-binding microarray; form: double-stranded DNA, one strand shown; sample: in vitro; tested at: 2200 nM top; setting: 60-bp whole probe; added: salmon DNA 0.4 mg/ml; relative to: random background probes; direction: higher = stronger binding; endpoint: fitted relative affinity
Target: Interferon regulatory factor 7, full length, phosphomimetic (IRF7, Homo sapiens, UniProt Q92985, residues 1-503, S471D/S472D/S475D/S476D/S477D/S483D/S484D/S487D)
Target sequence (chain): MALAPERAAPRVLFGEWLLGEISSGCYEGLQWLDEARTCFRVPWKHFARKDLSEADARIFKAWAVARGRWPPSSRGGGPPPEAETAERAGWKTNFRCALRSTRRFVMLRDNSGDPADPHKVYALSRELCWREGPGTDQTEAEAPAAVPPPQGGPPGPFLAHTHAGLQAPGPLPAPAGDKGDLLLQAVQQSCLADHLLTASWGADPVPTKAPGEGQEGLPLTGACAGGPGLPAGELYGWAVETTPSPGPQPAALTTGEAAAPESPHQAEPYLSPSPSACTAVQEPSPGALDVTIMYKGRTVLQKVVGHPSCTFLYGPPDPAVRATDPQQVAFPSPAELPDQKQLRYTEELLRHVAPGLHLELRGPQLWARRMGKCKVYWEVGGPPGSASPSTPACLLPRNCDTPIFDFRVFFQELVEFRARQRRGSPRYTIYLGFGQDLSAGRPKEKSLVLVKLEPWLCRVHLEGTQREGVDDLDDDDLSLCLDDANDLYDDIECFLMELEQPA
GCCTAGCACTCAGTTTTCATTTTATGACTGTGCTAGGTCTTGATTCGCTTGACGCTGCTG: 5.01 z-score
GCCTAGCACTTAGATGTCAGTATCGATTAGTGCTAGGTCTTGATTCGCTTGACGCTGCTG: 0.541 z-score
GCCTAGCACTTAGGTCTCTTTATCCTTTAGTGCTAGGTCTTGATTCGCTTGACGCTGCTG: 0.697 z-score
GCCTAGCACGAGGGGGCAGGGACTCAGGGGTGCTAGGTCTTGATTCGCTTGACGCTGCTG: 0.487 z-score

Sample 3 — method: universal PBM; form: double-stranded DNA, one strand shown; sample: in vitro; tested at: not given; direction: higher = stronger binding; endpoint: E-score
Target: Sal-like protein 4, full length isoform B (SALL4, Homo sapiens, UniProt Q9UJQ4-2, residues 1-616)
Setting: 8-mer, flanks averaged, mean of replicates
AACACGAT: 0.137
AGTATCCG: -0.0199
AGAGGCTC: -0.161
CACGAAAC: -0.0332
CCGCCTTC: -0.203
CAGGCTAC: -0.196

Further values, each from its own experiment
PhoQ, residues 284 288 289 292 302 303 NLMGRA — fold induction (PhoP, residues 12 14 15 18 19 SEGLL (Escherichia coli, UniProt P23836); Sort-seq, measured: YFP reporter; E. coli; PhoQ-PhoP variant library, added: 10 µM Mg2+; relative to: high Mg2+ state, higher = stronger signaling): 14.9
